# Results collected from several papers.
# Each numbered part is a random draw from the data of one study; scales do not carry over between parts. Positions count from the first letter of the parent shown.

# Sample 1
# Target: RNA binding protein fox-1 homolog 2, RRM domain, GST-SBP tag (RBFOX2, Homo sapiens, UniProt O43251-10, residues 100-194)
# Technique: RNA Bind-n-Seq
# Form: RNA
# Sample: in vitro
# Tested at: 365 nM
# Setting: natural RNA segment, single round, ends assumed
# Relative to: no-protein control
# Direction: higher = stronger binding
# All sequences stand within: GGGAGUUCUACAGUCCGACGAUC … UGGAAUUCUCGGGUGCCAA
# Target sequence (chain): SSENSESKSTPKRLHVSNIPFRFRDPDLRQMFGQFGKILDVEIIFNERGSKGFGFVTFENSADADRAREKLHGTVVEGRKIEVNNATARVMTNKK
Oligonucleotide,RBNS enrichment (R)
GUGUCCCUGAGCAGGAGGGGCUGUUGGGGUUGAGGGGGCCUUCAUUAAACCAAGUAACAUUGGGUCCUUUUUAGGUCCCACUUAAGCUGCUCUCCUGUGUGUGCUGAGGG,0.552
CUGCAAUGGCCCUACCAAAAGCCAUGUUGCAUAUCCGUUGUAAGCACGUGCCCUGUGCCCUGUCCCCAUUCCUUAUGCCCUAGGAGGCCAAGCUGGUGUCUCUAGGAGGG,0.407
AUUUGUAGUGACUGUUCCCUUCCCUCUGUUGCAGGGAACCAGGAGGAAAGGGAAAGAUGUUGCCAUAUUUCCUACUCUUUAGGCAUGGACUCUCCUUUCCCUUUGUUAGU,0.635
AUUUUUUAAUUUAACUUUUUUUUAAAUAUUGGUAAUAGGUCGGCAACAGCAACUAUAGAAGUACAACUCAAUAGAUGGCAUUAAAACAUAUUGUAGUGUGGAUAUAUAUU,0.471
CCCUCCCCUUUUGGAAAUAUGAAAGCAAAUGUUUAGAAGAAUUCCUUUUGAAAAGCUGUGUCGUGUUCCCUGUGAAACUGAGCAGGUGUGUGUUGGCGCGCUAAGUGCCA,0.777
GCAUGCUUUCUGGAGAUGAGGAUUUUUUGUCAGGUAGCUAGGAGAGCACUGCCACCUUGUGUCCAUAUAGCACAAUGUUUCUCUUUCCUAUUCACAGACAAGAUUCAAGA,8.92
AGCCCCUCGGAGGGGAGCAACCCGGUGCCUGCUGCUUCACCACUGCCGGCCUCAGGACCCUCCCUGGAGGGGCUGCCACCUCUGCCCUCAUCUCCAGGGCCUUGACCUCA,0.24
AGCGCUGUAUCUGCAGUGGCAGCCCUUCCCCACUUCGGCUCUGGGAGGGUCCAGCCAGUGUCACCUGGGCCCACCCUUUCCUGCAGCUGCCAGGCCCGUGCGGUCAGUGG,0.379
CUGGACAGCCAACUAGAACUCUGCAUCCUGUCACAGGAAGCACCUCAUAAGAAGGGAUGGGGAGGGAAGGAAGUCGCCUUGUUUACAGACCUAUUUUUGUUGUCUUGUUC,0.621

# Sample 2
# Target: Interferon regulatory factor 5, full length, phosphomimetic (IRF5, Homo sapiens, UniProt Q13568-2, residues 1-514, K96S/S451D/S453D/S456D/S462D)
# Technique: protein-binding microarray
# Form: double-stranded DNA, one strand shown
# Sample: in vitro
# Tested at: 250 nM
# Setting: 60-bp whole probe
# With: salmon DNA 0.4 mg/ml
# Relative to: random background probes
# Direction: higher = stronger binding
# All sequences stand within: GCCTAGCAC … GTCTTGATTCGCTTGACGCTGCTG
Oligonucleotide,log fluorescence
TTAGATTTGGGGTATCGATTAGTGCTA,2.35 z-score
TTAGATTTCGGGTATCGATTCGTGCTA,7.02 z-score
TCATCTTTATGTACTCTCACTGTGCTA,1.14 z-score
GACGATATCGGGTTTCTAGACGTGCTA,2.06 z-score
TTAGATATCGGGCATCGATTAGTGCTA,1.71 z-score
TTAGAACTGCGGTTTCGATTAGTGCTA,6.87 z-score
TCAAGTTTCTCAACCACACTGTGCTAG,0.972 z-score
GACGGTTTCGCGTATCGGGACGTGCTA,2.39 z-score
GACGGTCTCCGACTGGGGACGTGCTAG,-0.444 z-score
ATGTTTTTCATTTTGTTCATGTGCTAG,2.75 z-score
TTACGTTCCGGTTTCGGTTAGTGCTAG,9.84 z-score
TTTTTTTTTTTTTTTTTGGAGTGCTAG,1.28 z-score
GACGGGCTCGGTTTCGGGACGTGCTAG,2.18 z-score
CTGCATTACAGCTATTTTTAGGTGCTA,0.338 z-score
TTAGGTCTCGGTATCCGTTAGTGCTAG,0.767 z-score

# Sample 3
# Target: ABI1, truncated, D143A, DHFR fusion (Arabidopsis thaliana, UniProt P49597)
# Technique: DHFR PCA, dose-response
# Sample: yeast
# Setting: Hill fit, mean, not affinity
# With: (+)-ABA, dose series
# Direction: lower = more sensitive
# Starting sequence: PYL1, truncated, DHFR fusion (Arabidopsis thaliana, UniProt Q8VZS8); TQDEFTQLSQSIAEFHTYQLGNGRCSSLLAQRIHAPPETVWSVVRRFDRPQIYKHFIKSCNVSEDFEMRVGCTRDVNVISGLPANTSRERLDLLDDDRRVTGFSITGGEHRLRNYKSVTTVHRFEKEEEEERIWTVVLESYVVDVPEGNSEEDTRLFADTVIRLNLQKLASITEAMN
Substitution,ABA EC50 [µM]
E4H,3.02
V136A,46
E67Q,2.96
T73H,2.74
A84C,72.2
T39E,3.74
A35L,323
R46S,5.93
F5P,8.03
Y18R,10.6
N61P,97.9
G108S,451
Q31K,3.65
E14Q,4.24

# Sample 4
# Target: RING finger protein unkempt homolog, zinc fingers 1-6, GST-SBP tag (UNK, Homo sapiens, UniProt Q9C0B0, residues 30-357)
# Sequence of UniProt Q9C0B0 (30-357, looked up): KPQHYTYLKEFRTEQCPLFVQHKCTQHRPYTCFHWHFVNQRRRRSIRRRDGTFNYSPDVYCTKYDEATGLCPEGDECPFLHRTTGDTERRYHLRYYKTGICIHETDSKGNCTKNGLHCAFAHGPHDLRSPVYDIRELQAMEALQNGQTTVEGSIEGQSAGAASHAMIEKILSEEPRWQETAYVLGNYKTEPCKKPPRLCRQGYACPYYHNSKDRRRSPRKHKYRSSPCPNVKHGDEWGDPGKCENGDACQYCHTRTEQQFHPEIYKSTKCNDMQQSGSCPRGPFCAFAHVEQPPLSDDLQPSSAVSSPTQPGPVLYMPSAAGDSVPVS
# Technique: RNA Bind-n-Seq
# Form: RNA
# Sample: in vitro
# Tested at: not given
# Setting: RNA with constant flanks, ends assumed
# Relative to: input RNA pool
# Direction: higher = stronger binding
# All sequences stand within: GGGAGUUCUACAGUCCGACGAUC … CAACAGAGGAUUGAGCAUCA
Oligonucleotide,bound/input enrichment [ratio]
GCAGGGCUUUACUUUACACUCUCCUUUUUAUCCUUGUAUUUUUCUAAAGGUAACUGAUUGCUCCGAUGCUGAGUAAGGAAGAUACAUUGUUGUCAUUGUUUGGCUUUGGUAGAAUGAAAC,0.197
GCUGCAUCUGACAGAGCAAGUAGACGAGAGGCUGGGUGGUGGGCUCCGGCCAGCCCGAGUCUCCGAGCUGGUGGUUGGUUAUAUCUGGUGCCUGUCUCGAGGAGGGCUUGAGACACAGUG,0.274
AGUUUUGUCUGAGAUGCACCUUGCAUGGUACGUGUGUGAGAGGUUGUGCAAGUUCUGAGACUCCGACAAUUCAGAAGUCACCCUUCUGAGGGAACAGUUCCCAAAAUGGAGCAAUAAAGG,0.166
UUUGAAGUAAAGACCAUACAUGGGAGCAAGUCAGUGGACUCUGGGAUCUAUCUGGACAGCCGUUACAAAAUGGAUUAUCCUGAAAUGGGCAUAUGCAUAAUAAUUAAUAAUAAGAACUUC,0.885
GACCAUGAAUUAUGGAAUUUCCUAAAUGAAGCAUUCAGGAAUGGAAUGAGAGAAUGUCACACCGAAAAUAAAUGAUUUUUAAGUUAUGUCUAUUAAUUUGACUCUAGAUAUAUAUAUUUA,2.53
ACAACUCUGGAUAGAGCUGCGUGUUUGCCACCUGGAGACCAUAAUGCAUUAUAUGUAAACCGCUUCCCACUUCUGGACCCAUCUGAUGCACCUUUUCCCUCACUCGAUUCCCCGGGAAAA,0.157

# Sample 5
# Target: CCNF, cyclin fold, Cln2 fusion (human)
# Technique: yeast growth competition, sequencing
# Sample: yeast
# Setting: strong parent motif
# Relative to: not given
# Direction: higher = stronger binding
# Starting sequence: MICAL3 docking peptide (human); LQLRRQLSFSEDS; partner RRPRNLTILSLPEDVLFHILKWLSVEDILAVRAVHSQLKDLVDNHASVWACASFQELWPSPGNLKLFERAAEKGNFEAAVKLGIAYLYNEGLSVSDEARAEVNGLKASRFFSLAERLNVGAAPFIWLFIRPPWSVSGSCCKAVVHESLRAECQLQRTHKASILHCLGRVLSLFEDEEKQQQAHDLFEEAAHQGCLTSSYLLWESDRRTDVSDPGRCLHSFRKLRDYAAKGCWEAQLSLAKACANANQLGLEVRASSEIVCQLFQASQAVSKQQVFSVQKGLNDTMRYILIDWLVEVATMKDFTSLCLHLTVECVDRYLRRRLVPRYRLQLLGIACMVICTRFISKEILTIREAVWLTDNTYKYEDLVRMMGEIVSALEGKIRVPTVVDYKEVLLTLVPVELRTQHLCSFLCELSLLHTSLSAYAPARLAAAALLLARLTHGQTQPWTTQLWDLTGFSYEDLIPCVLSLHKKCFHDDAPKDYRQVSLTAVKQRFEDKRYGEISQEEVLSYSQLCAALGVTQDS
Substitution,normalised enrichment score
Q2P,6.18
R4I,2.33
Q2T,5.26
E11L,5.87
D12T,5.39
L7R,0.114
Q6H,4.5
R4L,0.689
L3G,4.89
Q2D,4.8
Q6N,1.07
R5Q,0.29
S10W,5.76
R5E,-0.124

# Sample 6
# Target: Cyclic AMP-dependent transcription factor ATF-1, full length (ATF1, Homo sapiens, UniProt P18846, residues 1-271)
# Technique: protein-binding microarray
# Form: hairpin DNA
# Sample: in vitro
# Tested at: not given
# Setting: whole hairpin DNA, median over replicate spots
# Relative to: not given
# Direction: higher = stronger binding
# Construct (chain): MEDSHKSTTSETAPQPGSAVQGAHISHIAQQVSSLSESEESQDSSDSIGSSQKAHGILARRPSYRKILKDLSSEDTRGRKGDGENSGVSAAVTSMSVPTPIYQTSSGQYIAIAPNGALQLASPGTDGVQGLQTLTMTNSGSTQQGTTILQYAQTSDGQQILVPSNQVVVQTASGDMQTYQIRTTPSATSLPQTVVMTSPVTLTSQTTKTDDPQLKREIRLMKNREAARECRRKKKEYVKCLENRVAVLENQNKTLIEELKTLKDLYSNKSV
Oligonucleotide,median fluorescence [a.u.]
GAGGCCGGATGACCGCAGCCTCCTGGCTGCGGTCATCCGGCCTCACACTC,3680
GAGGCCGCGGACGTCGTGCCTCCTGGCACGACGTCCGCGGCCTCACACTC (5mC at 15 29 35),4060
GAGGCCGGATCGCGTCAGCCTCCTGGCTGACGCGATCCGGCCTCACACTC,4260
GAGGCCGGATGATGTCAGCCTCCTGGCTGACATCATCCGGCCTCACACTC,4020
GAGGCCGACGACGTGGTGCCTCCTGGCACCACGTCGTCGGCCTCACACTC (5mC at 9 29 35),5370
GAGGCCGACGACGCCGTGCCTCCTGGCACGGCGTCGTCGGCCTCACACTC (5mC at 9 14 15 29 35),4510
GAGGCCGGATTACGTCAGCCTCCTGGCTGACGTAATCCGGCCTCACACTC,6930
GAGGCCGACGAGGTCGTGCCTCCTGGCACGACCTCGTCGGCCTCACACTC (5mC at 9 15 29 35),3240
GAGGCCGGATGACGTCGGCCTCCTGGCCGACGTCATCCGGCCTCACACTC (5mC at 16),7450
GAGGCCGGACGACGTCAGCCTCCTGGCTGACGTCGTCCGGCCTCACACTC,6180
GAGGCCGGCTGACGTAAGCCTCCTGGCTTACGTCAGCCGGCCTCACACTC,8190
GAGGCCGACGACGTTGTGCCTCCTGGCACAACGTCGTCGGCCTCACACTC (5mC at 9 29 35),4510
GAGGCCGGATGACGTCAGCCTCCTGGCTGACGTCATCCGGCCTCACACTC (5mC at 37),15900
GAGGCCTGATGACGTCAGCCTCCTGGCTGACGTCATCAGGCCTCACACTC,15300
GAGGCCGGATGACGTCAGCCTCCTGGCTGACGTCATCCGGCCTCACACTC,17000

# For quick reference, copied from above (sample 2):
Oligonucleotide,log fluorescence
TTAGATTTCGGGTATCGATTCGTGCTA,7.02 z-score
TCATCTTTATGTACTCTCACTGTGCTA,1.14 z-score
GACGATATCGGGTTTCTAGACGTGCTA,2.06 z-score
TTAGATATCGGGCATCGATTAGTGCTA,1.71 z-score
TTAGAACTGCGGTTTCGATTAGTGCTA,6.87 z-score
TCAAGTTTCTCAACCACACTGTGCTAG,0.972 z-score
GACGGTTTCGCGTATCGGGACGTGCTA,2.39 z-score
GACGGTCTCCGACTGGGGACGTGCTAG,-0.444 z-score
ATGTTTTTCATTTTGTTCATGTGCTAG,2.75 z-score
TTACGTTCCGGTTTCGGTTAGTGCTAG,9.84 z-score
TTTTTTTTTTTTTTTTTGGAGTGCTAG,1.28 z-score
GACGGGCTCGGTTTCGGGACGTGCTAG,2.18 z-score
